Published values from different studies.
Each numbered part is a random draw from the data of one study; scales do not carry over between parts.

Set 1
Target: Histone acetyltransferase KAT6A, both winged helices, GST fusion (KAT6A, Homo sapiens, UniProt Q92794, residues 1-181)
Method: protein binding microarray
Form: double-stranded DNA, one strand shown
Matrix: in vitro
Concentration: not given
Setting: 8-mer, flanks averaged, mean of 2 arrays, mostly near background
Baseline: not given
Direction: higher = stronger binding
Measurement: E-score
Target sequence (chain): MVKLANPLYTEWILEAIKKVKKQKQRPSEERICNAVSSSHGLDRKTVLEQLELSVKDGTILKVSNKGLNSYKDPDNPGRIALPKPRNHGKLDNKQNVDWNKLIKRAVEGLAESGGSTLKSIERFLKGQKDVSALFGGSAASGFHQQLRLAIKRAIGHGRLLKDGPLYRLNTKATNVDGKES
CGCAGACC: 0.109
AGCATTTG: -0.114
CGCTTAGA: 0.0938
ACACGCGC: 0.317
CGATGGGC: -0.0419
AGGCTCTG: -0.222
CTTCGCGA: 0.15
AGAGAATC: -0.17
GAACGCCA: 0.00213
GTTCGCTA: 0.0381
GTAGGGAA: -0.0697
GCGCGCCA: 0.362
ATAAGTCG: 0.0125
ATTGAATC: -0.125
ATCAGTAC: -0.0237
GAAGAAAA: -0.138
CGCGCCCA: 0.222
ATGGTTAC: -0.0567
AGAGAGCT: -0.15
CCTTTAGA: -0.101
AGTGAGAT: -0.0276
CGATTCAC: 0.0117
ATCGGCCC: 0.223
ATCGGGAA: 0.19
AAGCAACA: -0.146

Set 2
Target: Sal-like protein 4, full length isoform B (SALL4, Homo sapiens, UniProt Q9UJQ4-2, residues 1-616)
Method: universal PBM
Form: double-stranded DNA, one strand shown
Matrix: in vitro
Concentration: not given
Setting: 8-mer, flanks averaged, mean of replicates
Direction: higher = stronger binding
Measurement: E-score
AACGGGTG: -0.212
CAGTCTGG: -0.181
ATGGTCAA: 0.125
CGCGCTCC: -0.281
CGGTCTTA: -0.0786
CGATTATC: 0.00877
CAAGTAAA: 0.226
GCAGCTAC: -0.153
CGTCTAAG: -0.194
CAGTACAA: 0.128
ATTGGCTC: 0.118
ACCACAGT: -0.0155
GCGGCAAC: -0.245
ACGCCCTA: -0.168
ATGTGACG: 0.00454
GTTAGAAA: 0.117
AACCATGC: 0.00038
CGGTTTAC: -0.0447
AAGGTCCG: -0.298
CATTGGGC: -0.165
AACGTGGG: -0.102
CTGACATC: -0.0601
AGCTTCAG: -0.0778
ACTGCCAC: -0.063

Set 3
Target: RNA binding protein fox-1 homolog 2, RRM domain, GST-SBP tag (RBFOX2, Homo sapiens, UniProt O43251-10, residues 100-194)
Method: RNA Bind-n-Seq
Form: RNA
Matrix: in vitro
Concentration: 365 nM
Setting: natural RNA segment, single round, ends assumed
Baseline: no-protein control
Direction: higher = stronger binding
Measurement: RBNS enrichment (R)
All sequences stand within: GGGAGUUCUACAGUCCGACGAUC … UGGAAUUCUCGGGUGCCAA
Construct (chain): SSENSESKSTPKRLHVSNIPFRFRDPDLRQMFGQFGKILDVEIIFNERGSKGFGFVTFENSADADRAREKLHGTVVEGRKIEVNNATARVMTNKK
AGAGUUGGAAAUGCAAAAUUGCCAAAUAGCACAAACAGUGAAUGUUUUCCAGUUAUACGAGAUGCCAAAAUAGCACUUUUGUAUUUAACAGAGUGCUUUAUGCUUUUUAA: 0.305
CAAGCUGGAGUGCAGUGGCGCGAUCUCGGCUCACUGCAACCUCCGCCUCCUGGGUUCAAGCAGUUCUCUUGCCUCAGCCUCCCAAGUAGCUGGGAUGACAGGCGCACACC: 0.19
ACCAAAUAUGAACUUGUGAGUUGUGUCAAUGCAGAGAACCGGGGUUUUGUGUUAAUAGAGUAUUGUUUUAGCAUGUGAUCAGAUCUUAAGAAAGAAAGAAAGAAAGACAG: 16.6
AGUCAGGAGAAAACCACCUUCAUAAACUGCUCUGUGCAAAGAGGAAUAAAACAUUUUUUCCAAACUGCCUUUGUGUGAUGUUUCUGUUUCUCUUCCUCUCUUUUUGGCAG: 0.289
CAGGCAACAGACACAAUCUGUGCUGAUUAAACUGUCAGCUGGAUACCAGACUUUUAGGGAGACUGGACAAACAUCAGGACUGGCUUUUAUAAGUAGGCAGGUAAUCUUCA: 0.294
GAAUUUUUCUAAACAGGAACAGCCAUUUGCAAAAUGGGUUUUCAUAGUGAUUGCAUCAAUUAUAACAUUUAUCAUUAGCAGUUGAGAGCACAUGUUCAUAUAGCAAUGUA: 0.97
GCAUUACCUGCCAGCGAGUCAAGGUAGGGGAUCCAGCAAACGGUUUUGGGAAUUCAGACUGUGGAAACAUCGGACUUCCCUUUGCCCUUCCUCAACUUAGUGGCAAAGCC: 0.546
GUCCUCUGCAGUGCCUCUCUCACGGCUGUCUGACCCCAGCCUGCCUGUCCUGCCCCACUAGUCCUCACCACUACUCGCAUGUCCCCACCUUGCCUGGGACCAGCCUGGGA: 2.81
AAAUUCCAGCACCAAGUGUUGUGGCAACAGCUGAGAGAGUGCAGGCACCACUGUGUUGUGGCUUGUUGACCGGGAAUGUGUCACCCCUGCCAGGGAACUCUUCUCCUCGC: 0.496
GCCUUGCCCUCAUGAAGCAUCAUUGAAAUAGCAGGAGCAUGUUGAUUUCUUGGUUAGGUUGCAUUAUAAUAACAAGAGUCAGAACAUUAAUUCGAAACAACUUGCAGUAU: 3.66
CCUGACUGGAAUGUAUUCAGUUUCUCAUGUUACUUCUAUUUAAAAAAUAAAAUCUAUUCUCUUAGAAGUACAGAUCAUUUUGAAACUUAAUGUGAUAUUUGUUGACAUUU: 1.11
UUGAUGUCAUGUACUUCCUGUGUACUCUUUAUUUCUAGCAGAGUGAGGAUGUGUUUUGCACGUCUUGCUAUUUGAGCAUGCACAGCUGCUUGUCCUGCUCUCUUCAGGAG: 0.622

Set 4
Target: Interferon regulatory factor 5, full length, phosphomimetic (IRF5, Homo sapiens, UniProt Q13568-2, residues 1-514, S451D/S453D/S456D/S462D)
Method: protein-binding microarray
Form: double-stranded DNA, one strand shown
Matrix: in vitro
Concentration: 940 nM top
Setting: 60-bp whole probe
With: salmon DNA 0.4 mg/ml
Baseline: random background probes
Direction: higher = stronger binding
Measurement: fitted relative affinity
All sequences stand within: GCCTAGCAC … GTCTTGATTCGCTTGACGCTGCTG
TTAGGTCTCCTTTTCCCTTAGTGCTAG: 0.553 z-score
GACGGACTGCACACTGGGGACGTGCTA: -0.232 z-score
CTGTGTGTCAGGTTTACTAGGGTGCTA: -0.574 z-score
TCAGTTCTGGGAAATATTACTGTGCTA: 0.138 z-score
TTCGATTTCAGTTTCGATTAGTGCTAG: 9.4 z-score
GACGGTATCAGACTGGGGACGTGCTAG: 0.481 z-score
GTTTTTCTCCTATTTAAGACGTGCTAG: 2.02 z-score
ATAGATCTCAGTATCGATTAGTGCTAG: 4.5 z-score
TTAGGTTCCCGTTTCCTTTAGTGCTAG: 0.947 z-score
TTCGGTATCGACTTTCGGTTAGTGCTA: 6.81 z-score
TTAAGTTTCGACACTGGGTTAGTGCTA: 7.76 z-score
GACGATATCGGGACTGGAGACGTGCTA: -0.32 z-score
TTAGGACTGGGTATCGGGTAGTGCTAG: 1.35 z-score
TTAGATATCGTGTTTCGATTAGTGCTA: 2.05 z-score
GACTGTCTCGGTCTCGGGACGTGCTAG: 3.72 z-score
GACGGTATCGGCTTTCGGGACGTGCTA: 4.9 z-score
GACGGTATGGACTTTCGGGACGTGCTA: 0.287 z-score
TTAGGTTTCGTTTTCCTTTAGTGCTAG: 10.6 z-score
GACGATCTCAGACTGCAGACGTGCTAG: -0.495 z-score
TAGAGTAGCTTTCTGAGGGCGTGCTAG: -0.304 z-score

Set 5
Target: Ras GTPase-activating protein-binding protein 1, RRM domain (G3BP1, Homo sapiens, UniProt Q13283)
Chain of UniProt Q13283 (whole entry, looked up): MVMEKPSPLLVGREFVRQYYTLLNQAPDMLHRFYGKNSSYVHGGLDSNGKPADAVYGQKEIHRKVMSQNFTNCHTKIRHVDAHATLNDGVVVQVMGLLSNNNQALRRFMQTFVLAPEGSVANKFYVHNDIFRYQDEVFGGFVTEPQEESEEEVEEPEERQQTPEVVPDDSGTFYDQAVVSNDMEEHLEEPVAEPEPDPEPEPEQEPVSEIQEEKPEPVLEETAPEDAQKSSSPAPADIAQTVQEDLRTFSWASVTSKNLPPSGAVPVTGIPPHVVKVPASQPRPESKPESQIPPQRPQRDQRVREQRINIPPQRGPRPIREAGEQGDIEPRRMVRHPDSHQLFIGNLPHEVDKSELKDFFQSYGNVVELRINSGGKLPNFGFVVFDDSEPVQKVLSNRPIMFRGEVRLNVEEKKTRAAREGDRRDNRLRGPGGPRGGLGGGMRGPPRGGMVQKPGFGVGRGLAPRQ
Method: RNA Bind-n-Seq
Form: RNA
Matrix: in vitro
Concentration: 1 µM
Setting: whole 134-nt RNA, ends assumed
With: 150 mM KCl
Baseline: input library
Direction: higher = stronger binding
Measurement: log2 enrichment
All sequences stand within: GGGAGUUCUACAGUCCGACGAUC … UGGAAUUCUCGGGUGUCAAGG
CAAGUCCUGUGCUACACAUCGUAUGUACCGAAUCGGGGCCCGGGCCCGGGCCCGGAAAGUAUUAUGUUACGCCGUUCGGAUCUGCACUUC: -2.4
UCCUGUGCUACACAUCGUAUGUACCGAAUCGGGCCCCCGGGCCCCCGGGGCCCCCGGGGAAAGUAUUAUGUUACGCCGUUCGGAUCUGCA: -0.555
CAAGUCCUGUGCUACACAUCGUAUGUACCGAAUCGGUUUGGGUUUGGGGUUUGGGAAAGUAUUAUGUUACGCCGUUCGGAUCUGCACUUC: -0.331
CUGUGCUACACAUCGUAUGUACCGAAUCGGGUUUUUUUGGGUUUUUUUGGUUUUUUUGGGGAAAGUAUUAUGUUACGCCGUUCGGAUCUG: -0.211
ACCAUGCAGGUGGGCAUCUUUGCGAAGUGGGGCAAGGGGGGGAUAGGGAGGGGGGUAACACUUUGGGAACAGGUGGUCCCAGGUCGUUUC: -0.425
UGGCCCUGGUGGCAUGCGGGGAGGAAGAGGUGGCCUCAUGGAUCGUGGUGGUCCCGGUGGAAUGUUCAGAGGUGGCCGAGGUGGAGACAG: 1.3
UGUGCUACACAUCGUAUGUACCGAAUCGGGGUUUUUUUGGGGUUUUUUUGGGGUUUUUUUGGAAAGUAUUAUGUUACGCCGUUCGGAUCU: -0.111
UGGCCCUGGUGGCAUACGGGGAGGAAGAGGUGGCCUCAUGGAUCGUGGUGGUCCCGGUGGAAUGUUCAGAGGUGGCCGUGGUGGAGACAG: 0.901
UCAAGUCCUGUGCUACACAUCGUAUGUACCGAAUCGGAAAGGUUUUUGGUUUGGAAAGUAUUAUGUUACGCCGUUCGGAUCUGCACUUCC: -0.315
AGUCCUGUGCUACACAUCGUAUGUACCGAAUCGGGUUUUUGGGUGGGAAAAAAAGGGAAAGUAUUAUGUUACGCCGUUCGGAUCUGCACU: 0.232
CAGCAGUGAGUCUCUUCAGAAAACCCUUUUCUACAGUUAGGGUUGAGUUACUUCCUAUCAAGCCAGUACGUGCUAACAGGCUCAAUAUUC: -0.209
UCCUCAAGUCCUGUGCUACACAUCGUAUGUACCGAAUCGGCGGCGGGCGGGGAAAGUAUUAUGUUACGCCGUUCGGAUCUGCACUUCCAG: -0.205
UAACUUUAGAGGAGGAUCUGAUGGAUAUGGCAGUGGACGUGGAUAUGGGGAUGGCUAUAAUGGGUAUGGAGGAGGACCUGGAGGUGGCAA: -0.386
UGCAGACGGGGAACCUGCUGAACUGGGGCCGCCUGCGGAAGAAGUGCCCGUCCACGCACAGCGAGGAGGUGAGCGUGGCGACACUCGCCG: -0.815

Excerpt of the above (set 2):
CGCGCTCC: -0.281
CGGTCTTA: -0.0786
CGATTATC: 0.00877
CAAGTAAA: 0.226
GCAGCTAC: -0.153
CGTCTAAG: -0.194
CAGTACAA: 0.128
ATTGGCTC: 0.118
